Assay results collected from several papers.
“And” joins repeats or separate records; there may be more than shown. Numbers after ± are the reported error. In brackets after ≈: the same amount, converted by molar mass.

| SMILES | assay | test system | setting | how to read | endpoint | result |
| --- | --- | --- | --- | --- | --- | --- |
| COc1c(OCCCN2CCOCC2)ccc2c1N=C(NC(=O)c1cnc(N)nc1)N1CCN=C21 | refers to: plasma glucose and insulin | patients with advanced cancers | intravenous, dose not given, added: gemcitabine or cisplatin-gemcitabine | – | time to resolution | 24 to 48 h |
| O[C@H]1CCCN[C@@H]1CCCn1cnc2c(Cl)c(Cl)ccc21 | – | healthy human volunteers, plasma | oral, 25 mg, day 1, multiple ascending dose | – | MRT | 7.36 h |
| CC1N=C(c2ccccc2F)c2cc(Nc3ccc(S(C)(=O)=O)cc3)ccc2NC1=O (centres unmarked) | shake flask | PBS | 24 h, pH 7.4 | – | solubility | 34 µM (≈ 14.9 µg/mL) |
| Oc1ccc2cc3ccc4cccc5ccc(c2c1)c3c45 | UPLC-AMS | human, plasma | oral, 250 ng of [14C]-BaP | – | AUC | 32.3 ± 18.9 fg BaP equivalents·h/mL |
| ClC=C(Cl)Cl | – | human, venous blood | inhalation, 100 ppmv for 4 h | – | compartment 2 half-life | 8.8 h and 2.54 h and 0.679 h and 4.3 h |
| Cc1cc(Nc2ccc(C(F)(F)F)nc2)n2nc(C(C)(F)F)nc2n1 | – | rat | oral, up to 750 mg/kg, GLP head-out plethysmography study | – | animals found dead or euthanized | 2 to 3 animals per group |
| CN[C@@](C)(C[18F])C(=O)O | – | SCID mouse A549 xenograft, blood | 60 min, post injection | – | tissue uptake | 1.1 ± 0.1 %ID/g |
| CC[C@H](C)[C@H](NC(=O)[C@H](CCC(=O)O)NC(=O)[C@@H](NC(=O)[C@H](CC(=O)O)NC(=O)[C@H](CC(C)C)NC(=O)[C@H](C)NC(=O)[C@H](CCSC)NC(=O)[C@H](CCCCN)NC(=O)[C@@H](NC(=O)[C@H](CC(N)=O)NC(=O)[C@H](CC(C)C)NC(=O)[C@H](CC(C)C)NC(=O)[C@H](CC(=O)O)NC(=O)[C@H](CCC(N)=O)NC(=O)[C@H](Cc1ccc(O)cc1)NC(=O)[C@H](CCC(=O)O)NC(=O)[C@H](CCCNC(=N)N)NC(=O)[C@H](CCC(=O)O)NC(=O)[C@H](CC(C)C)NC(=O)[C@H](CCCNC(=N)N)NC(=O)[C@H](C)NC(=O)[C@H](CC(C)C)NC(=O)[C@H](CCC(=O)O)NC(=O)[C@@H](N)CCC(=O)O)C(C)C)[C@@H](C)CC)C(=O)N[C@@H](C)C(=O)N[C@H](C(=O)N[C@@H](Cc1ccc(O)cc1)C(=O)N[C@@H](CCCNC(=N)N)C(=O)N[C@@H](CCCCN)C(=O)N[C@@H](CC(C)C)C(=O)N[C@@H](CC(C)C)C(=O)N[C@@H](CCC(=O)O)C(=O)N[C@@H](C)C(=O)N[C@@H](CC(C)C)C(=O)N[C@@H](CCC(=O)O)C(=O)N[C@@H](CO)C(=O)N[C@@H](CCCNC(=N)N)C(=O)O)[C@@H](C)O | dynamic light scattering | Tris-HCl buffer with NaCl | 1 mg/ml, pH 7.5, 25 °C | – | hydrodynamic diameter | ~540 nm |
| CC(C)[C@H](O)C(=O)N[C@H]1Cc2ccc3c(c2)[C@]2(C4=C(c5nc(CO)co5)N=C(O4)[C@H](C(C)(C)C)NC1=O)c1cc(F)ccc1N[C@@H]2O3 | – | mice | – | – | NOAEL | 36 mg/m² |
| CCCCCCCCCCCCCCCC[N+](C)(C)C | substrate depletion | human liver microsomes | 0.5 µM, 0 to 3 h, 37 °C, added: NADPH | – | intrinsic clearance | 0.069 mL/h/mg protein |
| CC[C@H](C)[C@H](NC(=O)[C@H](Cc1ccccc1)NC(=O)[C@H](CC(=O)O)NC(=O)[C@H](CCCNC(=N)N)NC(=O)[C@H](Cc1ccccc1)NC(=O)[C@H](Cc1ccccc1)NC(=O)[C@H](CCCCN)NC(=O)[C@H](CO)NC(=O)[C@H](CC(C)C)NC(=O)[C@H](CCCNC(=N)N)NC(=O)[C@H](CCSC)NC(=O)[C@@H](N)CCC(=O)O)C(=O)N[C@@H](CC(C)C)C(=O)N[C@@H](CCC(N)=O)C(=O)N[C@@H](CCCNC(=N)N)C(=O)N[C@@H](CCCCN)C(=O)N[C@@H](CCCCN)C(=O)O | – | rabbit erythrocytes | concentration not given, 30 min, 37 °C | relative to: Triton X-100 | hemolysis | not toxic |
| CC(=O)N[C@H](CCCCNC(=O)C(C)F)C(=O)N[C@@H](CS)C(=O)N[C@@H](CS)C(=O)N[C@@H](CCC(=O)O)C(=O)N[C@@H](Cc1c[nH]cn1)C(=O)N[C@H](Cc1ccccc1)C(=O)N[C@@H](CCCNC(=N)N)C(=O)N[C@@H](Cc1c[nH]c2ccccc12)C(=O)N[C@@H](CS)C(=O)N[C@@H](CCCNC(=N)N)C(=O)N1CCC[C@H]1C(=O)N[C@H](C(N)=O)C(C)C (some centres unmarked) [fluorine-18 labelled] | – | C57BL/6 mice, male, B16-F10 tumour, intestine | intravenous, 4 h | – | tissue uptake | 0.29 ± 0.18 %ID/g |
| COC(=O)N[C@H](C(=O)N1CCC[C@H]1C(=O)Nc1ccc([C@@H]2CC[C@@H](c3ccc(NC(=O)[C@@H]4CCCN4C(=O)[C@@H](NC(=O)OC)C(C)C)cc3)N2c2ccc(C(C)(C)C)cc2)cc1)C(C)C | – | healthy human volunteers, plasma | oral, dose not given, added: pravastatin plus 2D regimen | – | AUC(0-24) | 1010 ng·h/mL |
| O=C(NCc1ccc(F)cc1F)c1cn(Cc2ccccc2)cc(O)c1=O | – | PBS | 72 h, pH 7.2 | – | solubility | 2.2 µM (≈ 0.815 µg/mL) |
| CC(=O)NCCCC[C@H](NC(=O)OC12CC3CC(CC(C3)C1)C2)C(=O)N[C@@H](CCC(=O)C=[N+]=[N-])C(=O)OC(C)C | metabolic stability | pig, liver | 20 µM, 1 h | – | compound remaining | 28% |
| CC(=O)N[C@@H](Cc1ccc(O)cc1)C(=O)N[C@@H](C)C(=O)N[C@@H](CCC(=O)O)C(=O)N[C@@H](C)C(=O)N[C@@H](C)C(=O)N[C@@H](CCCCN)C(=O)N[C@@H](C)C(=O)N[C@@H](C)C(=O)N[C@@H](CCC(=O)O)C(=O)N[C@@H](C)C(=O)N[C@@H](C)C(=O)N[C@@H](CCCCN)C(=O)N[C@@H](C)C(=O)N[C@@H](C)C(=O)N[C@@H](CCC(=O)O)C(=O)N[C@@H](C)C(=O)N[C@@H](C)C(=O)N[C@@H](CCCCN)C(=O)N[C@@H](C)C(=O)N[C@@H](C)C(=O)N[C@@H](CCC(=O)O)C(=O)N[C@@H](C)C(=O)N[C@@H](C)C(=O)N[C@@H](CCCCN)C(=O)N[C@@H](C)C(=O)N[C@@H](Cc1ccccc1)C(N)=O | CD at 222 nm | potassium phosphate buffer | 40 µM, pH 7.0, no lipid | – | mean residue ellipticity | -20100 deg cm² dmol⁻¹ |
| CCCCCOc1ccc(-c2ccc(-c3ccc(C(=O)N[C@H]4C[C@@H](O)[C@@H](O)NC(=O)[C@@H]5[C@@H](O)[C@@H](C)CN5C(=O)[C@H]([C@@H](C)O)NC(=O)[C@H]([C@H](O)[C@@H](O)c5ccc(O)cc5)NC(=O)[C@@H]5C[C@@H](O)CN5C(=O)[C@H]([C@@H](C)O)NC4=O)cc3)cc2)cc1 | – | human neonates, plasma | intravenous, 1.5 mg/kg/day after 3 mg/kg loading | – | steady-state clearance | 0.333 mL/min/kg |
| O=c1[nH]c(Cc2ccccn2)nc2c1cnn2C1CCOCC1 | – | male human, plasma | oral, 2 mg, single dose | – | Tmax | 0.33 h |
| CSCC[C@@H]1NC(=O)[C@H](CC(=O)O)NC(=O)CNC(=O)[C@H](CCCNC(=N)N)NC(=O)[C@H](C)NC(=O)[C@H](CCC(=O)O)NC(=O)[C@H](CCCNC(=N)N)NC(=O)[C@@H]2CSSC[C@@H]3NC(=O)[C@H](CO)NC(=O)[C@H]([C@@H](C)O)NC(=O)[C@@H]4CCCN4C(=O)[C@H](C)NC(=O)[C@H](Cc4c[nH]c5ccccc45)NC(=O)[C@H](CC(=O)O)NC(=O)CNC(=O)[C@H](CCCNC(=N)N)NC(=O)CNC(=O)[C@H](CCC(N)=O)NC(=O)[C@@H]4CCCN4C(=O)[C@@H](NC(=O)CNC(=O)C(C)F)CSSC[C@H](NC(=O)CNC(=O)[C@H](C)NC(=O)[C@H](CC(C)C)NC(=O)[C@H](CSSC[C@@H](C(=O)NCC(N)=O)NC(=O)[C@H]([C@@H](C)O)NC(=O)[C@H](CCCNC(=N)N)NC(=O)[C@@H]4CCCN4C1=O)NC(=O)[C@H](CC(=O)O)NC(=O)[C@H](CO)NC(=O)[C@H](CC(=O)O)NC(=O)[C@H](CCC(N)=O)NC(=O)[C@H](CO)NC3=O)C(=O)N[C@@H](C(C)C)C(=O)N2 (some centres unmarked) [fluorine-18 labelled] | – | nude mouse, U-87 MG xenograft, liver | intravenous, 2.5 h, added: cyclo(RGDyK) co-injected | – | tissue uptake | 0.19 ± 0.04 %ID/g |
| CSCC[C@H](N)C(=O)N[C@@H](CC(N)=O)C(=O)N[C@@H](Cc1ccccc1)C(=O)N[C@@H](CCCNC(=N)N)C(=O)N1CCC[C@H]1C(=O)NCC(=O)N[C@H](C(=O)N[C@@H](CC(C)C)C(=O)N[C@@H](CO)C(=O)N[C@@H](CO)C(=O)N[C@@H](CCCNC(=N)N)C(=O)N[C@@H](CCC(N)=O)C(=O)N[C@@H](CC(C)C)C(=O)NCC(=O)N[C@@H](CC(C)C)C(=O)N1CCC[C@H]1C(=O)NCC(=O)N1CCC[C@H]1C(=O)N1CCC[C@H]1C(=O)N[C@@H](CC(=O)O)C(=O)N[C@H](C(=O)N1CCC[C@H]1C(=O)N[C@@H](CC(=O)O)C(=O)N[C@@H](Cc1c[nH]cn1)C(=O)N[C@@H](C)C(=O)N[C@@H](C)C(=O)N[C@@H](Cc1ccc(O)cc1)C(=O)N[C@@H](Cc1c[nH]cn1)C(=O)N1CCC[C@H]1C(=O)N[C@@H](Cc1ccccc1)C(=O)O)C(C)C)C(C)C | LC-MS/MS | human serum | concentration not given, 4 h, room temperature, tube without gel separator | relative to: initial concentration | change in serum concentration | -11.7 ± 20% |
| O=C(NC1CCNCC1)c1n[nH]cc1NC(=O)c1c(Cl)cccc1Cl | ECG, Bazett correction | patients | intravenous, dose not given | – | QTc increase | < 30 ms |
| Cc1nc(Nc2ncc(C(=O)Nc3c(C)cccc3Cl)s2)cc(N2CCN(CCO)CC2)n1 | – | male C57BL/6 mouse wild type, plasma | intravenous, 10 mg/kg | – | terminal half-life | 3.96 ± 2.33 h |
| [123I]c1cncc(OC[C@@H]2CCN2)c1 | SPECT | human, hippocampus | intravenous bolus plus infusion, 7.6 mCi | relative to: tissue over plasma | tissue/plasma ratio | 35 |
